Results of several laboratories.
Every numbered part comes from another study and shows a few of its results, in no order.
Sequence of UniProt Q8IWQ3 (whole entry, looked up): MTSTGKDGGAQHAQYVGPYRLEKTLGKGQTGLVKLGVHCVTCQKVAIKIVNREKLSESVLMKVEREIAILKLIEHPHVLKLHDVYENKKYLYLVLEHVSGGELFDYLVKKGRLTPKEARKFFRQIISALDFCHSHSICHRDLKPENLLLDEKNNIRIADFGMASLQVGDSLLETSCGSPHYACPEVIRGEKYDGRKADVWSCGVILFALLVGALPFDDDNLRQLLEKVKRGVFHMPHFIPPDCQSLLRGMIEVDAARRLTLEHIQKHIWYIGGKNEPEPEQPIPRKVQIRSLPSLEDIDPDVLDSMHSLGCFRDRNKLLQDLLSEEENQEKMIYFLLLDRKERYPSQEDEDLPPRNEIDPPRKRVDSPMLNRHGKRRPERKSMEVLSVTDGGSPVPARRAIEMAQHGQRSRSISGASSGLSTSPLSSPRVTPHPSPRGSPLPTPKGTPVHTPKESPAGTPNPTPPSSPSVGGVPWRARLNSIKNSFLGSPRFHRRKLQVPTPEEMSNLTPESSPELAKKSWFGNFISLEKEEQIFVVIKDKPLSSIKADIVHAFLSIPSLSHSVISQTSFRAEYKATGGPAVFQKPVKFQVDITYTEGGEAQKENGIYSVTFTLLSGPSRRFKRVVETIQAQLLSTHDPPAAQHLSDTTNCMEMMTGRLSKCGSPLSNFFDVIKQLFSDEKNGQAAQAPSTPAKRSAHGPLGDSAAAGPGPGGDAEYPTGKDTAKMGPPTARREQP
Sequence of UniProt O75582 (whole entry, looked up): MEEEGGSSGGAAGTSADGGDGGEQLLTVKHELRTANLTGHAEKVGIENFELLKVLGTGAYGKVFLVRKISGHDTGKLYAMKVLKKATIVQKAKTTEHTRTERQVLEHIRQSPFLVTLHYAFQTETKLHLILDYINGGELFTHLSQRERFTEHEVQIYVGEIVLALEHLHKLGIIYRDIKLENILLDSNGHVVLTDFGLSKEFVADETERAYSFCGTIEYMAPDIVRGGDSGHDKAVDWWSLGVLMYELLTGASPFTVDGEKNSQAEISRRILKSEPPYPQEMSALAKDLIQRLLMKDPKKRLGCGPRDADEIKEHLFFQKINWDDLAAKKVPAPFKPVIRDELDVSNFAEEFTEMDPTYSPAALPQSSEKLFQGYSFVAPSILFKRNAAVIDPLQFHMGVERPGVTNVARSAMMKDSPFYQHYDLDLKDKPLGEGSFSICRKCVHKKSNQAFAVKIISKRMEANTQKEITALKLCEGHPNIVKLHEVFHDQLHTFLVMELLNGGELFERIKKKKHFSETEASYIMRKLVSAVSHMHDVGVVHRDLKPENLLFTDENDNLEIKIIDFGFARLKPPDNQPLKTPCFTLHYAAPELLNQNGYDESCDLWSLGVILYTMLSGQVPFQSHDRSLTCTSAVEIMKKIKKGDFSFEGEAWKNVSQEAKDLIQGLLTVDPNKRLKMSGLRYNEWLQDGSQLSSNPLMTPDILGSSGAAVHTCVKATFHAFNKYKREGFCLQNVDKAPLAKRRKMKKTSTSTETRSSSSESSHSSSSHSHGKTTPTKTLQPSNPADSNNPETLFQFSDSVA
Sequence of UniProt Q9P2K8 (whole entry, unmodified, looked up): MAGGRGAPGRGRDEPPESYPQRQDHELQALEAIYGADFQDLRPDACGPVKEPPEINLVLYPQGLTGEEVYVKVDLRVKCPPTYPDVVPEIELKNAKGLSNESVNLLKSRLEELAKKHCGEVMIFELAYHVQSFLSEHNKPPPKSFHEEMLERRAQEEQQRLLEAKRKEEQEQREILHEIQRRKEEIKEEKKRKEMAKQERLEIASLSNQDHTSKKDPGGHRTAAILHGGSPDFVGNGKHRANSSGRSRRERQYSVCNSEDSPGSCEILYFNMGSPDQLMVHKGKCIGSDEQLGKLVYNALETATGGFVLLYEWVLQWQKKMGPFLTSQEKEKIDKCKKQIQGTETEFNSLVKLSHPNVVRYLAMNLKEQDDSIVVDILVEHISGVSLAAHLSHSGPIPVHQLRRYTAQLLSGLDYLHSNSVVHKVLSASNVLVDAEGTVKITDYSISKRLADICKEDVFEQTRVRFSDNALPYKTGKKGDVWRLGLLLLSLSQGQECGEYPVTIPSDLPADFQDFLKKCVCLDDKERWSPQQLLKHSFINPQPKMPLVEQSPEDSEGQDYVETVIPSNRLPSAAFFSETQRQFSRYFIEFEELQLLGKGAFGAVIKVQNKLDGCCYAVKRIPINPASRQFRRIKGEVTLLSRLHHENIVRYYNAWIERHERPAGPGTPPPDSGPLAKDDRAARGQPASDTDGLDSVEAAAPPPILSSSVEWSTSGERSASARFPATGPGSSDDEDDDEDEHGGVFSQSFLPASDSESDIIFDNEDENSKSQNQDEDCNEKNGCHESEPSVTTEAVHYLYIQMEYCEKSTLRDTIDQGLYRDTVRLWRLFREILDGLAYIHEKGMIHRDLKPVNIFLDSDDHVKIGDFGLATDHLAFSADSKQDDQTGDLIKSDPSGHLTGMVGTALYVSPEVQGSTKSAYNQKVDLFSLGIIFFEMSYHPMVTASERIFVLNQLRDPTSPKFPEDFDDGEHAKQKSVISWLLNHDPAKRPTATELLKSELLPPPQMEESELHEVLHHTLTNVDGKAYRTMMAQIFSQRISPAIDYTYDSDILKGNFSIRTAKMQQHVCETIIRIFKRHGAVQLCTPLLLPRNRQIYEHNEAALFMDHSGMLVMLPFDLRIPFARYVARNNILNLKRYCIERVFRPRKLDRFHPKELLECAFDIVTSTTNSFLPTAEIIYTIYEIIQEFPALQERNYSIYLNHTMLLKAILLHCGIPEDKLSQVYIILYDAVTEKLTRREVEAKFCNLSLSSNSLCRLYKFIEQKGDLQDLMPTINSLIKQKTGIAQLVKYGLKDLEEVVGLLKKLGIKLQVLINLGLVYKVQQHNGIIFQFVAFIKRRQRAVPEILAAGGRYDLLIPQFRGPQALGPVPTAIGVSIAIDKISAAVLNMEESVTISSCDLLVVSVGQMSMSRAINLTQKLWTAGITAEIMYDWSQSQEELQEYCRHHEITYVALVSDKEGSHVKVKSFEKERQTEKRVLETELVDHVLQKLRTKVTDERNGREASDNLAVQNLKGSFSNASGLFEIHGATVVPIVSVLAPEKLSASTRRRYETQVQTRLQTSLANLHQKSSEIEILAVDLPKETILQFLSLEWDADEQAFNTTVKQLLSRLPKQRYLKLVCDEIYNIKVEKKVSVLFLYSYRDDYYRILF
Sequence of UniProt Q8WTQ7 (whole entry, looked up): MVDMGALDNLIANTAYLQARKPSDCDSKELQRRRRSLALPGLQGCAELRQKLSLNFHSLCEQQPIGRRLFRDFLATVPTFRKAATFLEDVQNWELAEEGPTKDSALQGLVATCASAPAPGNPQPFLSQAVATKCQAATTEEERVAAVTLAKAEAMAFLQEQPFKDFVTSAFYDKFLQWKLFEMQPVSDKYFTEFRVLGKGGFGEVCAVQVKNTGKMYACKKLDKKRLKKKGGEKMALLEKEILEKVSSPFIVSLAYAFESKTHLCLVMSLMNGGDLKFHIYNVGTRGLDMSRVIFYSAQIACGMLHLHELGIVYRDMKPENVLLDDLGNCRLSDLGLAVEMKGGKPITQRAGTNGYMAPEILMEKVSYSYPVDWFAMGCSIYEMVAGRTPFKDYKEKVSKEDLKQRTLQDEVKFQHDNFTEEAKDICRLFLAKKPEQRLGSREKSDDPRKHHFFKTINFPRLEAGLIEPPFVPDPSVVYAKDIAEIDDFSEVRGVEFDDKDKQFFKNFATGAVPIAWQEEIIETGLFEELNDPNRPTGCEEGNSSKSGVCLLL

Block 1 — observed: ligand displacement; concentration: 10 µM; quantity: inhibition
Target: Sigma intracellular receptor 2 (TMEM97, Homo sapiens, UniProt Q5BJF2)
Sequence of UniProt Q5BJF2 (whole entry, looked up): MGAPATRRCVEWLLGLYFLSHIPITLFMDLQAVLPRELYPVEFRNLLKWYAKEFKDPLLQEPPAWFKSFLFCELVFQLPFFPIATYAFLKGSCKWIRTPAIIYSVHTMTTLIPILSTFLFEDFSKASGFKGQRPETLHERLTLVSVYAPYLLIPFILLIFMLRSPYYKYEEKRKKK
CO[C@H]1CC[C@H](CNc2ccc(S(=O)(=O)NC(=O)c3ccc(N4CCN(CC5=C(c6ccc(Cl)cc6)CC(C)(C)CC5)CC4)cc3Oc3cnc4[nH]ccc4c3)cc2[N+](=O)[O-])CC1: 60.7%
CN1CCN(c2cnc3c(C4CCN(C(=O)c5ccc(OC(F)(F)F)cc5N)CC4)ncnc3c2)CC1: 30.9%
CN(C)C(=O)c1sc2nc(N3CCC(S(C)(=O)=O)CC3)cc(C(F)(F)F)c2c1N: 70.6%
CNC(=N)NCCC[C@H](NC(=O)[C@H](CC(C)C)NC(=O)NNC(=O)[C@H](Cc1ccccc1)NC(=O)[C@H](CO)NC(=O)[C@H](CC(N)=O)NC(=O)[C@@H](Cc1ccncc1)NC(=O)[C@H](N)Cc1ccc(O)cc1)C(=O)N[C@@H](Cc1ccccc1)C(N)=O: -5.31%
Cc1noc([C@H]2C[C@@H](c3ccc(C(F)(F)F)cc3)CN(C(=O)N3CCS(=O)(=O)C3)C2)n1: 42.4%
O=C(Nc1ccc(Oc2ccc(F)cc2)cc1)N1CCc2ncccc2[C@H]1c1ccc(F)cc1: 80.8%
O=C(N[C@H]1CCCCC/C=C\C2C[C@@]2(C(=O)O)NC(=O)[C@@H]2C[C@@H](Oc3ccncc3)CN2C1=O)OC1CCCC1 (some centres unmarked): 18.5%
COCCOc1nc(-c2ccc(Cl)nc2)nc2c1CN(C(=O)c1ncn3ccccc13)CC2: 55.6%
Nc1cnc(N2CCc3cc(S(=O)(=O)Nc4c(F)cc(Cl)cc4F)cc(N4CCCC4=O)c32)nc1: -12%
O=C1NC(c2ccccn2)Sc2ccccc21 (centres unmarked): -19%
Nc1nc(NCc2ccccc2)nc(-c2ccccc2CO)n1: -27.6%
Cc1ccccc1Oc1cc(-n2c(=O)cc(C(F)(F)F)[nH]c2=O)c2ccccc2c1Cl: -7.5%
Cn1cc(Cl)c2c(Oc3c(F)cc(Nc4cc(Cl)nc(N)n4)cc3F)ccnc21: -39.7%
CN1CCN(c2ccnc(NCCc3ccccc3)n2)CC1: 77.2%
O=C(NS(=O)(=O)c1ccc(NCC2CCOCC2)c([N+](=O)[O-])c1)c1ccc(N2CCN(Cc3ccc(C(F)(F)F)cc3-c3ccc(Cl)cc3)CC2)cc1Oc1cnc2[nH]ccc2c1: 54.3%
COc1ccc2cc(OCC3(C(=O)O)CN(C(=O)c4ccc(F)cc4)C3)ccc2c1: -1.29%
COc1cc(C(=O)O)ncc1C#Cc1ccccc1NS(=O)(=O)c1cccc2c(N(C)C)ccnc12: 25%
CN(C)c1ncnc(-c2ccc3nc(Nc4cc(CN5CCN(C(=O)CC(F)(F)F)CC5)ccn4)[nH]c3c2)c1Cl: 68.1%
Cc1c(NC(=O)c2cc(C(N)=O)nc3cc(F)ccc23)c(C(F)(F)F)nn1Cc1ccc(C#N)cc1: -10.3%
c1ccc(C2CCN(c3cnc4c(N5CCOCC5)nccn34)CC2)cc1: 31.6%
CC1CCN(c2ccnc(NCc3cn(C)cn3)n2)CC1: 33.6%
O=S(=O)(NC1CCC(c2cc(F)ccc2F)(S(=O)(=O)c2ccc(Cl)cc2)CC1)C(F)(F)F (centres unmarked): 25.2%
CCc1ccccc1C(=O)Nc1n[nH]c2c(C)c(F)c(C3C(C#N)=C(C)N(C)C(C)=C3C#N)cc12: 78.3%
Cc1cc(Nc2nccc(C)n2)cc(-c2cnc([C@@]3(O)CC[C@H](C(=O)O)C(C)(C)C3)s2)c1: 33.6%
CC[C@H](CC(=O)O)n1c(=O)c2ncccc2n(Cc2cn(C)c3cc(C)cc(C)c23)c1=O: -9.5%

Block 2 — observed: enzyme activity; action: inhibitor; concentration: 0.5 µM; baseline: control; quantity: remaining activity
Target: Serine/threonine-protein kinase B-raf (BRAF, Homo sapiens, UniProt P15056)
Sequence of UniProt P15056 (whole entry, looked up): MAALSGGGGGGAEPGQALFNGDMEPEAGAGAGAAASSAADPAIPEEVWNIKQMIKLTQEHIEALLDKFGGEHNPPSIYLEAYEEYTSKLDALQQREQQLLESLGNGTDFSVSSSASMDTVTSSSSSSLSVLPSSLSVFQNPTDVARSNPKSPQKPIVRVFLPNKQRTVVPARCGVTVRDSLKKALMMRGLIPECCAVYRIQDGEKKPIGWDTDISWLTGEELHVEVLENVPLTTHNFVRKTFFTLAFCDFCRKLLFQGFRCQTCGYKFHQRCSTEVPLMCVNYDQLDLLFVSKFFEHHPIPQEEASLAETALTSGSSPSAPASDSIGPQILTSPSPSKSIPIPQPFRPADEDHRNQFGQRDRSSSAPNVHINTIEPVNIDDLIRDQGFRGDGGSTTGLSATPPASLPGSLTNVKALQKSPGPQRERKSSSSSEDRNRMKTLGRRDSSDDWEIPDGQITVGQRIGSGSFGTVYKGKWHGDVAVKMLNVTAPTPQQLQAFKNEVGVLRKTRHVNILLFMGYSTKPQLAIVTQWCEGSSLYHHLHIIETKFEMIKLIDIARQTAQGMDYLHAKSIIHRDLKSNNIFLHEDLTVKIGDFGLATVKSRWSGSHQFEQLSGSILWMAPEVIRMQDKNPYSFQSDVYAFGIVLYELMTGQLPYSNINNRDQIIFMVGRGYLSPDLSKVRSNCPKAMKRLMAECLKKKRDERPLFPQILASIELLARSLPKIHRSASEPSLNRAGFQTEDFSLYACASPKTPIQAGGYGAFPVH
Clc1ccc(Nc2nnc(Cc3ccncc3)c3ccccc23)cc1: 92.2%
O=Nc1c(-c2c(O)[nH]c3ccccc23)[nH]c2ccccc12: 105%
COc1cc2c(Nc3ccc(Br)cc3F)ncnc2cc1OCC1CCN(C)CC1: 94.8%
NC(=O)c1ccc(-c2nc(-c3ccc4c(c3)OCCO4)c(-c3ccccn3)[nH]2)cc1: 96.8%
CC(C)N(CCC(=O)c1ccc2ccccc2c1)Cc1ccccc1: 95.6%
O=C1NC(=O)/C(=C/c2ccc3c(c2)OC(F)(F)O3)S1: 96.3%
Nc1nc(Nc2ccc(S(N)(=O)=O)cc2)nn1C(=S)Nc1c(F)cccc1F: 87.2%
CC(C)(C)c1nc2c3cc[nH]c(=O)c3c3cc(F)ccc3c2[nH]1: 117%
C[C@@H](N)[C@H]1CC[C@H](C(=O)Nc2ccncc2)CC1: 92.9%
CCCCc1c(-c2ccc(O)cc2)[nH]c2nccnc12: 99.3%
FC(F)(F)c1ccc(/C=C/c2nc(COc3ccc(CCCCn4ccnn4)cc3)co2)cc1: 94.3%
N#CC(c1ccnc(NCCc2cccnc2)n1)c1nc2ccccc2s1 (centres unmarked): 96.6%
c1cc(-c2cnn3cc(-c4ccc(OCCN5CCCCC5)cc4)cnc23)ccn1: 93.3%
CCN(CC)CCCCN1c2ccccc2Oc2ccc(Cl)cc21: 98.8%
CC(C)n1cnc2c(Nc3cccc(Cl)c3)nc(NCCO)nc21: 97%

Block 3 — cell line: HaCaT; concentration: 100 µM; time: 18 h; quantity: viability
C/C(=C\C(=O)OCCCCCCCCC(=O)O)C[C@@H]1OC[C@H](C[C@@H]2O[C@H]2[C@@H](C)[C@H](C)O)[C@@H](O)[C@H]1O: 116%
Cc1onc(-c2ccccc2)c1-c1ccc(S(N)(=O)=O)cc1: 93%
CN(C)CCc1c[nH]c2ccc(CS(=O)(=O)N3CCCC3)cc12: 88.4%
Cc1c(Cl)cccc1Nc1ccccc1C(=O)O: 95.3%
Cc1cc(-n2c(=O)[nH]c(=O)n(C)c2=O)ccc1Oc1ccc(SC(F)(F)F)cc1: 50.9%
C[C@H](Cc1cc2c(c(C(N)=O)c1)N(CCCO)CC2)NCCOc1ccccc1OCC(F)(F)F: 117%
O=c1cc(-c2ccc(O)cc2)oc2cc(O)cc(O)c12: 77.4%
COc1ccc2cc(CCC(C)=O)ccc2c1: 96%
CC(=O)O[C@]1(C(C)=O)CC[C@H]2[C@@H]3C=C(Cl)C4=CC(=O)CC[C@]4(C)[C@H]3CC[C@@]21C: 53.3%
N=C(N/N=C/c1ccc(Cl)cc1)N/N=C/c1ccc(Cl)cc1: 19.6%

Block 4 — action: inhibitor; concentration: 1 µM; quantity: inhibition
Structure (SMILES): C=CC(=O)N1CCC[C@@H](n2nc(-c3ccc(Oc4ccccc4)cc3)c3c(N)ncnc32)C1
GRK7 (Homo sapiens, UniProt Q8WTQ7); enzyme activity: 14%
DYRK1A (Homo sapiens, UniProt Q13627); enzyme activity: 24%
BRSK2 (Homo sapiens, UniProt Q8IWQ3): 13%
EIF2AK4 (Homo sapiens, UniProt Q9P2K8, S808G): 8%
Ribosomal protein S6 kinase alpha-5, N-terminal kinase domain (RPS6KA5, Homo sapiens, UniProt O75582): 4%
Tyrosine-protein kinase ABL1, non-phosphorylated (ABL1, Homo sapiens, UniProt P00519, T315I): 21%

Some of these lines once more (block 1):
Nc1nc(NCc2ccccc2)nc(-c2ccccc2CO)n1: -27.6%
CN(C)c1ncnc(-c2ccc3nc(Nc4cc(CN5CCN(C(=O)CC(F)(F)F)CC5)ccn4)[nH]c3c2)c1Cl: 68.1%
CC[C@H](CC(=O)O)n1c(=O)c2ncccc2n(Cc2cn(C)c3cc(C)cc(C)c23)c1=O: -9.5%
c1ccc(C2CCN(c3cnc4c(N5CCOCC5)nccn34)CC2)cc1: 31.6%
CO[C@H]1CC[C@H](CNc2ccc(S(=O)(=O)NC(=O)c3ccc(N4CCN(CC5=C(c6ccc(Cl)cc6)CC(C)(C)CC5)CC4)cc3Oc3cnc4[nH]ccc4c3)cc2[N+](=O)[O-])CC1: 60.7%
